Assay results pooled from the literature.
Compare with care: the assays were run in different laboratories. Numbers after ± are the reported error.

| Structure (SMILES) | cell line | assay | conditions | IC50 |
| --- | --- | --- | --- | --- |
| CC(C)Cc1ccc(C(C)C(=O)[O][Pt]([NH2])([NH2])([Cl])([Cl])[O]C(=O)CCCc2ccccc2)cc1 (centres unmarked) | 2008 cisplatin-sensitive | cytotoxicity, MTT | 72 h | 0.89 ± 0.19 µM |
| Cc1cc(C)c([N+]#[C][Pt-2]([Cl])([Cl])[C]#[N+]c2c(C)cc(C)cc2C)c(C)c1 | OVCAR-3 | cell growth or viability | – | 60 µM |
| O=C(Nc1ccccc1)c1ccccc1-n1c(=O)[nH]c2ccc(F)cc2c1=O | CHO-K1 | cell viability, MTT | 24 h | 83.2 ± 1.32 µM |
| COc1ccc(-c2cc(=O)c3c(O)cc(O[C@@H]4O[C@H](CO)[C@@H](O)[C@H](O)[C@H]4O)cc3o2)cc1OC | MDA-MB-231-pcDNA breast cancer | cytotoxicity, resazurin reduction | 72 h | > 100 µM |
| O=C(Nc1ncnc2c1ncn2[C@@H]1O[C@H](CO)[C@@H](O)[C@H](F)[C@H]1O)c1ccccc1 | L1210 | cell growth or viability | – | ≥ 200 µM |
| CC(C)c1cccc(C(C)C)c1[N+]#[C][Pt-2]([Cl])([Cl])[C]#[N+]c1c(C(C)C)cccc1C(C)C | OVCAR-3 | cell growth or viability | – | > 100 µM |
| CCC(C(=O)O)C1CCC(C)C(C(C)C(O)C(C)C(=O)C(CC)C2OC3(C=CC(NCc4cn(CCOCCOCCOC)nn4)C4(CCC(C)(C5CCC(O)(CC)C(C)O5)O4)O3)C(C)CC2C)O1 (centres unmarked) | HMLER CD24low/CD44high | cell proliferation | 72 h | 10.8 ± 0.9 µM |
| N=C(N/N=C/c1ccccn1)N/N=C/c1ccccn1 | PANC-1 | cell growth or viability, crystal violet | 72 h | 4.8 µM |
| CC1=CC2(C)C(=C(C)C3C4CC(C)CC(C)C4C4Oc5ccc(cc5)CC5(O)NC(=O)C(=C(O)C2C43)C5Nc2ncnc3c2ncn3C2OC(CO)C(O)C2O)C1C (centres unmarked) | L5178Y | cell growth or viability, MTT | 72 h | 2 µM |
| CC(=O)OC[C@H]1O[C@@H](NC(=O)CCCc2ccc3c(c2)CCCC3)[C@H](OC(C)=O)[C@@H](OC(C)=O)[C@@H]1OC(C)=O | L1210 | cell growth or viability | 48 h | 106 µM |
| [Cl][Au].[Se]=c1n(C23CC4CC(CC(C4)C2)C3)ccn1C12CC3CC(CC(C3)C1)C2 | H157 spheroids | acid phosphatase | 72 h, 3D spheroid | 5.8 ± 0.7 µM |
| CN1CCCNC(=O)CC2(CCCCC2)CC(=O)NCCCN(C)CCCNc2cccc3c2C(=O)c2cccc(c2C3=O)NCCC1 | HSC-2 | cell growth or viability, CCK-8 | 48 h | > 20 µM |
| CC(C)c1cccc(C(C)C)c1[N+]#[C][Pt-]([Cl])([Cl])=[C](Nc1ccc(CN[C](NC(C)(C)C)=[Au][Cl])cc1)Nc1c(C(C)C)cccc1C(C)C | OVCAR-3 | cell growth or viability | – | > 100 µM |
| CNC(=S)SC[C@@H]1C(=O)O[C@H]2[C@H]1CC/C(C)=C/CC[C@@]1(C)O[C@@H]21 | KG-1a | cell growth or viability, MTT | 72 h | 8.6 µM |
| COc1cccc(-c2ccc(Nc3ccc(CN(C)C)cc3)c(OC)c2F)c1 | SNU1 | HTRF, refers to: total Akt | – | 527 µM |
| CC(C)c1cccc(C(C)C)c1N1CCN(c2c(C(C)C)cccc2C(C)C)C1=[Se].[Cl][Ag] | LoVo-OXP (oxaliplatin-resistant) | MTT | 72 h | 4.5 ± 0.1 µM |
| CN(C)C(=S)N(C)N=Cc1ccccc1SSc1ccccc1C=NN(C)C(=S)N(C)C | breast, ovarian, colorectal cancer cells | MTT | 72 h, all cell lines of panel | < 1 µM |
| CC(C)c1cccc(C(C)C)c1-n1c(Cl)c(Cl)n(-c2c(C(C)C)cccc2C(C)C)c1=[Se].[Cl][Au] | H157 spheroids | acid phosphatase | 72 h, 3D spheroid | 8.7 ± 1.1 µM |
| CC(=O)Oc1ccccc1C(=O)[O][Pt]([NH2])([NH2])([Cl])([Cl])[O]C(=O)CCCc1ccccc1 | PSN1 | cell growth or viability, MTT | 72 h | 0.09 µM |
| Cl.[Cl][Ru-]1[S+]=C(N2CCCC2)N[N+]1=Cc1ccc(N(c2ccc(-c3ccsc3)cc2)c2ccc(-c3ccsc3)cc2)cc1.c1ccccc1 | HeLa S3 | cytotoxicity, MTT | 24 h | 85.6 ± 4.2 µM |
| COc1cccc2c1C(=O)c1c(O)c3c(c(O)c1C2=O)CC(O)(C(=O)CO)CC3OC1CC(NC(=O)CCC2=C(C)C(=O)C=C(C(C)C)C2=O)C(O)C(C)O1 (centres unmarked) | H-BM1 bone marrow fibroblasts | cytotoxicity, MTT | 72 h | ~16 µM |

| Structure (SMILES) | cell line | assay | conditions | IC50 |
| --- | --- | --- | --- | --- |
| CC(=O)OC[C@H]1O[C@@H](NC(=O)/C=C/c2ccc(-c3ccccc3)cc2)[C@H](OC(C)=O)[C@@H](OC(C)=O)[C@@H]1OC(C)=O | L1210 | cell growth or viability | 48 h | ≥ 250 µM |
| [NH2][Pt]1([NH2])([Cl])([O]C(=O)C(F)(F)F)[O]C(=O)C2(CC(=O)C2)C(=O)[O]1 | SGC-7901/CDDP cisplatin-resistant | cell viability, MTT | 48 h | 92.7 ± 1.56 µM |
| Cc1c(C)n(-c2c(C(C)C)cccc2C(C)C)c(=[Se])n1-c1c(C(C)C)cccc1C(C)C.[Cl][Ag] | A2780 ADR | MTT | 72 h | 0.3 ± 0.02 µM |
| COc1ccc2nc(NC(=O)c3ccc(C(N)c4ccccc4)cc3)sc2c1 (centres unmarked) | NCI-H2122 | cell growth or viability | – | 0.022 µM |
| O=c1ccn([C@@H]2O[C@H](CO)[C@@H](O)[C@H](F)[C@H]2O)c(=O)[nH]1 | L1210 | cell growth or viability | – | > 200 µM |
| CC(C)c1cccc(C(C)C)c1-n1ccn(-c2c(C(C)C)cccc2C(C)C)c1=[Se].[Cl][Au] | LoVo-OXP (oxaliplatin-resistant) | MTT | 72 h | 2.1 ± 0.4 µM |
| COc1ccc(O)c(-c2nc(-c3ccccc3)c(-c3ccccc3)n2-c2ccccc2)c1 | human foreskin fibroblasts HFF | cell viability, colorimetric | 72 h | > 1000 µg/mL |
| C=C[CH2][Pd-]([Cl])[Cl].Cc1cc(C)c(-n2c[n+](-c3c(C)cc(C)cc3C)c3c2-c2cccc4cccc-3c24)c(C)c1 | PSN1 | cell growth or viability, MTT | 72 h | 5 µM |
| CN1CCN(C(=O)c2ccc(-c3ccc4[nH]c5ncc(/C=C/c6ccccc6)cc5c4c3)cc2)CC1 | parental Ba/F3 (IL-3 dependent) | cell proliferation, [3H]-thymidine incorporation | – | 1.1 µM |
| O=C(CCCc1ccc2c(c1)CCCC2)N[C@@H]1O[C@H](CO)[C@@H](O)[C@H](O)[C@H]1O | L1210 | cell growth or viability | 48 h | > 250 µM |
| O=C(O)c1ccc(/C=C2\Oc3cc(O)ccc3C2=O)cc1 | PC-9 | cell growth or viability, MTT | 72 h | 32.4 µM |
| COC(=O)[C@H]1[C@H]2C[C@H]3O[C@@]4(CCN3C[C@H]2C[C@@H](OC(=O)c2cc(OC)c(OC)c(OC)c2)[C@@H]1OC)C(=O)Nc1cc(OC)c(Br)cc14 | SU-DHL-4 | cell growth or viability, trypan blue | 72 h | 12.6 µM |
| CC1CCC(NC(=O)N(C)c2cnc3ccc(-c4ccc(OCCCCCC(=O)NO)nc4)cc3n2)CC1 (centres unmarked) | Tera-1 | cell growth, MTT | 48 h | 0.25 µM |
| C=C1C(=O)O[C@H]2CC3=C[C@@H](C/C(C)=C/[C@@H](OC(=O)/C=C/c4ccccc4)[C@H]12)OC3=O | normal human melanocytes | viability, MTT | 24 h | > 10 µM |
| C/C1=C\CC[C@@]2(C)O[C@H]2[C@H]2OC(=O)[C@@H](CSC(=S)N3CCN(C)CC3)[C@@H]2CC1 | KG-1a | cell growth or viability, MTT | 72 h | 6.9 µM |
| CC(C)(C)c1n[nH]cc1-c1nc2ccc3[nH]ncc3c2c2c1CCCC2 | MV4-11 | cell growth or viability, resazurin | 72 h | 0.484 µM |
| CN1CCN(C(=O)c2cccc(-c3ccc4[nH]c5ncc(/C=C/c6ccccc6)cc5c4c3)c2)CC1 | parental Ba/F3 (IL-3 dependent) | cell proliferation, [3H]-thymidine incorporation | – | 2.8 µM |
| COc1cc(-c2nc3ccc(C(=O)NCCCN(C)C)cc3n2C2CCC2)cc(OC)c1OC | 293 T-BRE-Luc | reporter gene, inhibitor | 6 h, together with: BMP6-induced BMP6 500 ng/mL | 3.26 µM |
| CCCCCCCCCCCCCCCC(=O)OCCN1CCN(c2cc(Nc3ncc(C(=O)Nc4c(C)cccc4Cl)s3)nc(C)n2)CC1 | BV-173 | cell growth or viability, MTT | 72 h | < 5.12e-05 µM |
| CC(C)(O)C(O)COc1c2ccoc2cc2oc(=O)ccc12 (single isomer, unassigned; (+)) | L5178Y | cell growth or viability, MTT | 72 h | 42 µM |

A few entries again:
| Structure (SMILES) | cell line | assay | conditions | IC50 |
| --- | --- | --- | --- | --- |
| CC(=O)OC[C@H]1O[C@@H](NC(=O)CCCc2ccc3c(c2)CCCC3)[C@H](OC(C)=O)[C@@H](OC(C)=O)[C@@H]1OC(C)=O | L1210 | cell growth or viability | 48 h | 106 µM |
| [Cl][Au].[Se]=c1n(C23CC4CC(CC(C4)C2)C3)ccn1C12CC3CC(CC(C3)C1)C2 | H157 spheroids | acid phosphatase | 72 h, 3D spheroid | 5.8 ± 0.7 µM |
| CN1CCCNC(=O)CC2(CCCCC2)CC(=O)NCCCN(C)CCCNc2cccc3c2C(=O)c2cccc(c2C3=O)NCCC1 | HSC-2 | cell growth or viability, CCK-8 | 48 h | > 20 µM |
